Measurements gathered from unrelated publications.
Each numbered part is a random draw from the data of one study; scales do not carry over between parts. “And” joins repeats or separate records; there may be more than shown.
Sequence of UniProt P25098 (whole entry, looked up): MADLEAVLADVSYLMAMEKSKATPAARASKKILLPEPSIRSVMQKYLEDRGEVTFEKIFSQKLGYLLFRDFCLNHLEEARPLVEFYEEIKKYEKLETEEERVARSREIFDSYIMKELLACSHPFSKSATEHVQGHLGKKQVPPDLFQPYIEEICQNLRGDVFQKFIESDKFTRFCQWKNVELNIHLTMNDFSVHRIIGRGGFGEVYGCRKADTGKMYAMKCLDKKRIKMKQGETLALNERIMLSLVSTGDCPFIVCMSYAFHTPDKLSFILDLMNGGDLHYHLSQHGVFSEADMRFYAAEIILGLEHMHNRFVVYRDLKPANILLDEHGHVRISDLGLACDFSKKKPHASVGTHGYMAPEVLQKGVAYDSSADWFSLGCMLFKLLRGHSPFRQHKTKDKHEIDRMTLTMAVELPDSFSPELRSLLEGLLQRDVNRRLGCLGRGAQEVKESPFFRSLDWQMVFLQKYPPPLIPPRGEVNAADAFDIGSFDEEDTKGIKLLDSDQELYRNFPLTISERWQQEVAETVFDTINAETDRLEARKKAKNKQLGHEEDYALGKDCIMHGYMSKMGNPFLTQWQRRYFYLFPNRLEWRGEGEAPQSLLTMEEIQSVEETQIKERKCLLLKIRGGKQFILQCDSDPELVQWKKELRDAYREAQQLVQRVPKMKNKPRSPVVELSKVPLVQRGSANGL
Sequence of UniProt P42680 (whole entry, looked up): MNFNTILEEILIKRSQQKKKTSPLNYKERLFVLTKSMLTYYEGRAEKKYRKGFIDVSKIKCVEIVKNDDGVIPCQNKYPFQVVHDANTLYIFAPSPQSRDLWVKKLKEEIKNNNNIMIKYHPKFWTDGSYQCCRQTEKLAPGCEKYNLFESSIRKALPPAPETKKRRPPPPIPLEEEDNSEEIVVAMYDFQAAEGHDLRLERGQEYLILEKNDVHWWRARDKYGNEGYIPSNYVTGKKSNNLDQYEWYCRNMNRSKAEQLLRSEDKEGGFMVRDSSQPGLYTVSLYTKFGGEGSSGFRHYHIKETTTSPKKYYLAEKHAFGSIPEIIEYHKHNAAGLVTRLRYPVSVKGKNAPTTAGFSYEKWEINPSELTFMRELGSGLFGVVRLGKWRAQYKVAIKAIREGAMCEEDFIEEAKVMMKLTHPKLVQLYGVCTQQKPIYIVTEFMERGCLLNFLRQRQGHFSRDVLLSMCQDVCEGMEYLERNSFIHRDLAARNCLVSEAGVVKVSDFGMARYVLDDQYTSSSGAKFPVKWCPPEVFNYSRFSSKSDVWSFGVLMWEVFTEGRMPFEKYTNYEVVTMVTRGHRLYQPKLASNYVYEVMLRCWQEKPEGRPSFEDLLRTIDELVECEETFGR
Sequence of UniProt P50750 (whole entry, looked up): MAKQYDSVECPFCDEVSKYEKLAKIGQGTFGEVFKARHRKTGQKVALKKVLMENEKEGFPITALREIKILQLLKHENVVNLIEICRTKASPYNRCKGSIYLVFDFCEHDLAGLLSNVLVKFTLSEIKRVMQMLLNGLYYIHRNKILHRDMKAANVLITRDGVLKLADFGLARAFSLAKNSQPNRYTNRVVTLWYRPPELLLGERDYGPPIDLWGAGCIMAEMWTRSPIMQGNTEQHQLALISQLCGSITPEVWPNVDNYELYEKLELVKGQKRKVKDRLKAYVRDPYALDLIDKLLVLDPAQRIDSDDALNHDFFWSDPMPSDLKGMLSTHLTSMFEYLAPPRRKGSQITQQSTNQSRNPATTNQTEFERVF
Sequence of UniProt O43683 (whole entry, looked up): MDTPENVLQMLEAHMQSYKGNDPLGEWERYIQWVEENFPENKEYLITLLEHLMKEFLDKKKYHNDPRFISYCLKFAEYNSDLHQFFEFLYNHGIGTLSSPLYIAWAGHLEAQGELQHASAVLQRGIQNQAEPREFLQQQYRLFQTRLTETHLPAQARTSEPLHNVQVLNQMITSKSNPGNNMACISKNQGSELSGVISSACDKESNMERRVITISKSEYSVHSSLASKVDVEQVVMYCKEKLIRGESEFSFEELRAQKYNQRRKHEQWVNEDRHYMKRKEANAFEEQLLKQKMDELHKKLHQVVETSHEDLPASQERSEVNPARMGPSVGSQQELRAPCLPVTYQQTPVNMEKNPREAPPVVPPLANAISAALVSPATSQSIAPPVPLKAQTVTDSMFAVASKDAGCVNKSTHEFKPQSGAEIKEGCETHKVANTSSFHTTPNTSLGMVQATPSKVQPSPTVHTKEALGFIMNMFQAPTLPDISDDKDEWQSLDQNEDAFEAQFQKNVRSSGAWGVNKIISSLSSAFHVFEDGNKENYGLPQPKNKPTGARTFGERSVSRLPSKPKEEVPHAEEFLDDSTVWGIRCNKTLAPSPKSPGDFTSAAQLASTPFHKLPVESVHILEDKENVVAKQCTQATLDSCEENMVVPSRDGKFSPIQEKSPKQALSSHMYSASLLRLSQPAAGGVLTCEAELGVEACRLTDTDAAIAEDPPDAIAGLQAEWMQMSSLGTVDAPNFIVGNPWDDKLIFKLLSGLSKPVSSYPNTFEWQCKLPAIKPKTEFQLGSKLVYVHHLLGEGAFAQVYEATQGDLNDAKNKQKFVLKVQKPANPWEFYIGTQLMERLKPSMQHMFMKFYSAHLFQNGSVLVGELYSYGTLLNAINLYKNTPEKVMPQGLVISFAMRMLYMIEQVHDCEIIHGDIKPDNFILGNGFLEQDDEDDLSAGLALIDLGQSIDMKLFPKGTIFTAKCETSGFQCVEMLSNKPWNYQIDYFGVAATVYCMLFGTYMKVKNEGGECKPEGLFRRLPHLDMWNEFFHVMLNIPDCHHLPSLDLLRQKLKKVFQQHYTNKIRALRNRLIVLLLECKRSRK
Sequence of UniProt O94768 (whole entry, looked up): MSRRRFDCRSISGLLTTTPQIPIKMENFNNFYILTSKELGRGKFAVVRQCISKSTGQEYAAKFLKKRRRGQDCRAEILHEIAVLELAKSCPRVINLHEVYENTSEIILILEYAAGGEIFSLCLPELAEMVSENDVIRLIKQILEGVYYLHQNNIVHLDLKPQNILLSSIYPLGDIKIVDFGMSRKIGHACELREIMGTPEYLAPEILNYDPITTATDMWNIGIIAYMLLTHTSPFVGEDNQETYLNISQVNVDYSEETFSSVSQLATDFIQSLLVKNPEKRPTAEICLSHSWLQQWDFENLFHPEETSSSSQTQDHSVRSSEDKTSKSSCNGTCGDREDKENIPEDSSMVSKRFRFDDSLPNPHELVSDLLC
Sequence of UniProt O43353 (whole entry, looked up): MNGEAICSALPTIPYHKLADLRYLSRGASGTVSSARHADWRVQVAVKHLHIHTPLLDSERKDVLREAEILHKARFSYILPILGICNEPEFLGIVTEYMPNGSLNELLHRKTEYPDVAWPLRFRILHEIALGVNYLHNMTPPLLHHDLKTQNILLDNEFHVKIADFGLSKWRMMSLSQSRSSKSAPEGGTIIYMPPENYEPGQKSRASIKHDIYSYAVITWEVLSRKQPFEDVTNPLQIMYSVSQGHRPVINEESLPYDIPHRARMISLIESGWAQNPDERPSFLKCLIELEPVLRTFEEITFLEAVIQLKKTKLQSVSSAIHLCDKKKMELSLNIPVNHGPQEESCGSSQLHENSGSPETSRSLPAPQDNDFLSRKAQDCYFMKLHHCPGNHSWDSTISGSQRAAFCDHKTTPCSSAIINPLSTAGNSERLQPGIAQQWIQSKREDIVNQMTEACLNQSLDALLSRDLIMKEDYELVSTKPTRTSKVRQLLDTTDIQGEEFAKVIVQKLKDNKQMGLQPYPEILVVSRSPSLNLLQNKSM
Sequence of UniProt Q6P2M8 (whole entry, looked up): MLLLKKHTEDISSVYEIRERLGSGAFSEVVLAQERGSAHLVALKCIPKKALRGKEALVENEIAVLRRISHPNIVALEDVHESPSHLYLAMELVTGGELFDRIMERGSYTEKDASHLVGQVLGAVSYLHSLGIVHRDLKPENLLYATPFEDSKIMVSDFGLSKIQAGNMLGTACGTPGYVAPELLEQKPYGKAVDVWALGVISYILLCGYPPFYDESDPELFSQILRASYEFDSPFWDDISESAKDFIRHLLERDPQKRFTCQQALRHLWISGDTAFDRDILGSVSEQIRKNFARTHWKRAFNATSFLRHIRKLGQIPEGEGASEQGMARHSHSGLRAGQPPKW

Study 1 — technique: competition with immobilised ligand; tested at: 1 µM; quantity: remaining binding
SMILES: N#Cc1ccc(Nc2ccc3[nH]c(=O)[nH]c3c2)c(Cl)c1
cAMP-dependent protein kinase catalytic subunit alpha (PRKACA, Homo sapiens, UniProt P17612); cell-free assay: 96%
Receptor-type tyrosine-protein kinase FLT3 (FLT3, Homo sapiens, UniProt P36888, R834Q); cell-free assay: 90%
Tyrosine-protein kinase Mer (MERTK, Homo sapiens, UniProt Q12866); cell-free assay: 100%
Death-associated protein kinase 2 (DAPK2, Homo sapiens, UniProt Q9UIK4); cell-free assay: 92%
Bone morphogenetic protein receptor type-1A (BMPR1A, Homo sapiens, UniProt P36894); binding: 100%
Mitotic checkpoint serine/threonine-protein kinase BUB1 (BUB1, Homo sapiens, UniProt O43683); cell-free assay: 100%
Serine/threonine-protein kinase 24 (STK24, Homo sapiens, UniProt Q9Y6E0); cell-free assay: 100%
Serine/threonine-protein kinase 17B (STK17B, Homo sapiens, UniProt O94768); cell-free assay: 100%
Receptor-type tyrosine-protein kinase FLT3 (FLT3, Homo sapiens, UniProt P36888, N841I); cell-free assay: 77%
Receptor-interacting serine/threonine-protein kinase 2 (RIPK2, Homo sapiens, UniProt O43353); cell-free assay: 70%
Ephrin type-B receptor 6 (EPHB6, Homo sapiens, UniProt O15197); cell-free assay: 100%
Cyclin-dependent kinase 9 (CDK9, Homo sapiens, UniProt P50750); cell-free assay: 100%
Calcium/calmodulin-dependent protein kinase type 1B (PNCK, Homo sapiens, UniProt Q6P2M8); cell-free assay: 78%
SRSF protein kinase 3 (SRPK3, Homo sapiens, UniProt Q9UPE1); cell-free assay: 100%
Phosphatidylinositol 4,5-bisphosphate 3-kinase catalytic subunit alpha isoform (PIK3CA, Homo sapiens, UniProt P42336, E545A); cell-free assay: 100%
Tyrosine-protein kinase Tec (TEC, Homo sapiens, UniProt P42680); binding: 96%
Beta-adrenergic receptor kinase 1 (GRK2, Homo sapiens, UniProt P25098); cell-free assay: 100%

Study 2 — species: C57BL/6 IFN-γ knockout mouse female; matrix: plasma; route: oral; dose: 10 mg/kg; quantity: Cmax
CN(C(=O)c1ccn2ncc(-c3ccc(C(N)=O)cc3)c2c1)c1ccc(C#N)cn1: 618 nM and 800 nM and 560 nM
COC(=O)c1cc(Cl)ccc1N(C)C(=O)c1ccn2ncc(-c3ccc(C(N)=O)cc3)c2c1: 24 nM and 44 nM and 30 nM
CNC(=O)c1ccc(-c2cnn3ccc(C(=O)N(CC(=O)O)c4ccc(Cl)cc4)cc23)cc1: 85 nM and 53 nM and 11 nM
CCOC(=O)CN(C(=O)c1ccn2ncc(-c3ccc(C(=O)NC)cc3)c2c1)c1ccc(Cl)cc1: 336 nM and 301 nM and 242 nM
CNC(=O)c1ccc(-c2cnn3ccc(C(=O)N(C[C@H]4CCC(=O)O4)c4ccc(OC(F)(F)F)cc4)cc23)cc1: 18 nM and 31 nM and 46 nM

Study 3 — effect on: enzyme activity; action: inhibitor; tested at: 0.5 µM; relative to: control; quantity: remaining activity
Target: Activin receptor type-1 (ACVR1, Homo sapiens, UniProt Q04771)
Construct (Q04771 1-509): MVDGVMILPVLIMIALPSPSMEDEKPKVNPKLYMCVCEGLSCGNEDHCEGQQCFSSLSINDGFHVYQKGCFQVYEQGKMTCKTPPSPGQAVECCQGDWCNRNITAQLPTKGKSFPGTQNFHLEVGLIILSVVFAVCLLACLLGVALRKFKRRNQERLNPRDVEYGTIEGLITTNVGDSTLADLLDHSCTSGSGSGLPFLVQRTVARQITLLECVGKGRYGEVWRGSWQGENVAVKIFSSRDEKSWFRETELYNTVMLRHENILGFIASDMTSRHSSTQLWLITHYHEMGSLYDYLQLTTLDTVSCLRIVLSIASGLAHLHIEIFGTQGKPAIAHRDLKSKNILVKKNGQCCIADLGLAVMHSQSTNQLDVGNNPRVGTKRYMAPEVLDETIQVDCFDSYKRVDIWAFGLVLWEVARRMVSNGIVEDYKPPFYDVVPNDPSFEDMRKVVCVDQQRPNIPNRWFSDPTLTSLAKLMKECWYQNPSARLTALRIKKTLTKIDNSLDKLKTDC
CC(C)(C)n1nc(Cc2cccc3ccccc23)c2c(N)ncnc21: 106%
Nc1ncnc2c1cnn2-c1ccccc1: 101%
COc1cc(Nc2c(C#N)cnc3cc(OCCCN4CCN(C)CC4)c(OC)cc23)c(Cl)cc1Cl: 93.3%
CSc1nc(-c2ccnc(N[C@@H](C)c3ccccc3)c2)c(-c2ccc(F)cc2)[nH]1 (racemic): 89.3%
NC(=O)c1ccc(N(C(N)=O)c2c(F)cccc2F)nc1-c1ccc(F)cc1F: 105%
CC[n+]1c(/C=C/N(C)c2ccccc2)n(-c2ccccc2)c2ccc(-c3nc4ccccc4s3)cc21: 103%
O=C1Cc2c([nH]c3ccc([N+](=O)[O-])cc23)-c2ccccc2N1: 79.7%
CCc1[nH]c(-c2ccc(OC)cc2)nc1-c1ccncc1: 95.8%
N#CC(=C(N)Sc1ccc(N)cc1)c1ccccc1C(F)(F)F: 101%
Cc1ccc(NC2=CC(=O)c3sc(C)nc3C2=O)cc1: 99.1%
Nc1nc(Nc2ccc(S(N)(=O)=O)cc2)nn1C(=O)c1c(F)cccc1F: 104%
CCCC(=O)Oc1ccc2[nH]c(C(=O)c3cc4ccccc4[nH]3)cc2c1: 100%
Fc1ccc(-c2nc3n(c2-c2ccncc2)CCS3)cc1: 94.2%

Study 4 — action: degrader; technique: HiBiT kinetics; cell line: HEK293; quantity: protein remaining
SMILES: O=C1CCC(N2Cc3cc(C4CCN(Cc5ccccc5)CC4)ccc3C2=O)C(=O)N1 (centres unmarked)
Target: CRBN/Zinc finger protein Helios (Homo sapiens, UniProt Q96SW2+Q9UKS7)
Sequence of UniProt Q9UKS7 (whole entry, looked up): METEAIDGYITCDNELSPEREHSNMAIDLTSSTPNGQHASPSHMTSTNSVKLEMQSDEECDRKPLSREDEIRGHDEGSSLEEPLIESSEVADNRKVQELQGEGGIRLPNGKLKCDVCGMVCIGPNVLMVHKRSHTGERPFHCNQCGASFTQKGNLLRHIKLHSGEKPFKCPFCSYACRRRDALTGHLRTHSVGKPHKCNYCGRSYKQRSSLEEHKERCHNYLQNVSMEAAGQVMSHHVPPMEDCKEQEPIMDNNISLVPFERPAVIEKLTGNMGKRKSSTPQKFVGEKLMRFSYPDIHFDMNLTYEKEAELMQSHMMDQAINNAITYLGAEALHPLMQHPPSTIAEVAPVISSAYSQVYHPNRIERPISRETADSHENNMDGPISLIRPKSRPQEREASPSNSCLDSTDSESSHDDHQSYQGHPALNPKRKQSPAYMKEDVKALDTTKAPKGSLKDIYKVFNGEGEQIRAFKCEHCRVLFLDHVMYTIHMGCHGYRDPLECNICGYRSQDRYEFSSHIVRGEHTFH
Sequence of UniProt Q96SW2 (whole entry, looked up): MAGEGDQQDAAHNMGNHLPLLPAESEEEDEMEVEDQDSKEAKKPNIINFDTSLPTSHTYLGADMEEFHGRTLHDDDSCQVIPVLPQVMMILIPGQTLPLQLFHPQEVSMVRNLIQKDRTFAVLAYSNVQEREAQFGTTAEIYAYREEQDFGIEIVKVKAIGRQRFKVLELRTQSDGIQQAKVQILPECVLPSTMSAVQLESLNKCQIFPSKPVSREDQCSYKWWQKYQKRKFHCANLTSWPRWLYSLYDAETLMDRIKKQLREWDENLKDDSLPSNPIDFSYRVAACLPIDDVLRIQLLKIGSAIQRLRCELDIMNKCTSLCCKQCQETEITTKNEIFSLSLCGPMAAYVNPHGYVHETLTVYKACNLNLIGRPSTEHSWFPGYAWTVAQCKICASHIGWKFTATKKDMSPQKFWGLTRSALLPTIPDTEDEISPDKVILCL
1000 nM, 6 h: 19.4%
0.4572 nM, 3 h: 75.6%
12.35 nM, 6 h: 27.6%
0.01694 nM, 3 h: 108%
0.01694 nM, 0.5 h: 105%
37.04 nM, 1 h: 74.3%

Some of these lines once more (study 1):
Receptor-type tyrosine-protein kinase FLT3 (FLT3, Homo sapiens, UniProt P36888, R834Q); cell-free assay: 90%
Tyrosine-protein kinase Mer (MERTK, Homo sapiens, UniProt Q12866); cell-free assay: 100%
